{"data": "Assay results from different studies"}
{"Compound": "CCOc1ccc(Br)cc1/C=N/NC(=O)CCl", "cell line": "AMO1", "read-out": "cell viability", "IC50": "0.079 µM"}
{"Compound": "CC(=O)N[C@H](C(=O)N[C@@H](CCCNC(=N)N)C(=O)N[C@@H](CCCCN)C(=O)N[C@@H](CCCNC(=N)N)C(=O)N[C@H](C(=O)N[C@@H](CC(C)C)C(=O)N[C@@H](CCCNC(=N)N)C(=O)N[C@]1(C)CCCCCCC=CCCC[C@@](C)(C(=O)N[C@H](C(=O)N[C@@H](CCC(=O)O)C(N)=O)C(C)C)NC(=O)[C@H](CCC(=O)O)NC(=O)[C@H](CCCNC(=N)N)NC(=O)[C@H](CCC(=O)O)NC(=O)[C@H](CCC(N)=O)NC(=O)[C@H](CC(C)C)NC(=O)[C@H](CC(C)C)NC1=O)[C@@H](C)O)C(C)C", "cell line": "H1975 (EGFR L858R/T790M)", "read-out": "cell viability", "technique": "ATP luminescence", "time": "18 h", "IC50": "> 100 µM"}
{"Compound": "CCCC[C@H](N)C(=O)N[C@H]1CSCc2ccc(cc2)-c2ccc(cc2)CSC[C@@H](C(=O)N[C@H](C(N)=O)[C@@H](C)O)NC(=O)[C@H](CCCCN)NC(=O)[C@H](CCCCN)NC(=O)[C@H](CCCCN)NC(=O)[C@H](Cc2ccc(O)cc2)NC(=O)[C@H](CC(N)=O)NC(=O)[C@H](CC(C)C)NC1=O", "cell line": "ASPC1", "read-out": "cell growth or viability", "technique": "ATP luminescence", "IC50": "17 µM"}
{"Compound": "CCC1=C(C)C2=C(c3ccc(C(=O)NCCNC(=O)c4ccc(P(=NC(=O)c5ccccn5)(c5ccccc5)c5ccccc5)cc4)cc3)c3c(C)c(CC)c(C)n3[B-](F)(F)[N+]2=C1C", "cell line": "MCF-10A", "read-out": "cell viability", "technique": "MTT", "time": "72 h", "setting": "0.1% DMSO", "IC50": "not toxic"}
{"Compound": "Cc1cc(Oc2nc(N3CC[C@@H](c4ccncc4)C3)ncc2F)[nH]n1", "cell line": "THP-1", "read-out": "cell proliferation", "matrix": "blood cancer", "IC50": "67.6 µM"}
{"Compound": "CC(C)C12OC1C1OC13C1(C)CCC4=C(COC4=O)C1CC1OC13C2OC(=O)CCC(=O)OC1OC(CO)C(O)C(O)C1O (stereo not shown)", "cell line": "human cancer cell lines", "read-out": "cell viability", "technique": "XTT", "IC50": "2.42 µM"}
{"Compound": "CC(=O)N[C@H](C(=O)N[C@@H](CCCNC(=N)N)C(=O)N[C@@H](CCCCN)C(=O)N[C@@H](CCCNC(=N)N)C(=O)N[C@H](C(=O)N[C@@H](CC(C)C)C(=O)N[C@@H](CCCNC(=N)N)C(=O)N[C@@H](CCCNC(=N)N)C(=O)N[C@]1(C)CCCC=CCCC[C@@](C)(C(=O)N[C@@H](CCCNC(=N)N)C(=O)N[C@@H](CCC(=O)O)C(=O)N[C@@H](CC(C)C)C(=O)N[C@H](C(=O)N[C@@H](CCC(=O)O)C(N)=O)C(C)C)NC(=O)[C@H](CCC(N)=O)NC(=O)[C@H](CC(C)C)NC1=O)[C@@H](C)O)C(C)C", "cell line": "SK-N-MC (no EGFR or ErbB2-4)", "read-out": "cell viability", "technique": "ATP luminescence", "time": "18 h", "IC50": "> 100 µM"}
{"Compound": "Cc1sc2c(c1C)C(c1ccc(-c3cccc(NC(=O)c4cnn5cccnc45)c3)cc1)=N[C@@H](CC(N)=O)c1nnc(C)n1-2", "cell line": "MOLM-13", "read-out": "cell growth or viability", "technique": "ATP luminescence", "time": "72 h", "IC50": "0.0058 µM"}
{"Compound": "CC[C@H](C)[C@H](NC(=O)[C@H](CCCCN)NC(=O)[C@H](CCCCN)NC(=O)[C@H](CC(C)C)NC(=O)[C@H](CCCCN)NC(=O)[C@H](CCCCN)NC(=O)[C@H](Cc1ccccc1)NC(=O)[C@H](Cc1ccccc1)NC(=O)[C@H](CCCNC(=N)N)NC(=O)[C@H](CCCNC(=N)N)NC(=O)[C@@H](NC(=O)[C@H](CCCCN)NC(=O)[C@H](CCCNC(=N)N)NC(=O)[C@@H](NC(=O)[C@H](Cc1ccc(O)cc1)NC(=O)[C@H](CO)NC(=O)[C@H](CCCNC(=N)N)NC(=O)[C@@H](N)CC(C)C)[C@@H](C)CC)[C@@H](C)CC)C(=O)N[C@@H](CC(C)C)C(=O)N[C@@H](CCCCN)C(=O)N[C@@H](CCCCN)C(N)=O", "cell line": "THP-1", "read-out": "cell growth or viability", "technique": "resazurin", "IC50": "10 µM"}
{"Compound": "Cc1ccc(C(C)C)cc1.Cc1ccc(C(C)C)cc1.Cc1ccc(C(C)C)cc1.Cc1ccc(C(C)C)cc1.O=S(=O)(O)C(F)(F)F.O=S(=O)(O)C(F)(F)F.O=S(=O)(O)C(F)(F)F.O=S(=O)(O)C(F)(F)F.c1ccc2c3c4ccccc4c(c2c1)-c1cn(nn1)-c1cc[n+](cc1)[Ru-]1[O]c2ccc4c5c(ccc(c25)=[O+]1)=[O+][Ru-]([O]4)[n+]1ccc(cc1)-n1cc(nn1)-c1c2ccccc2c(c2ccccc12)-c1cn(nn1)-c1cc[n+](cc1)[Ru-]1[O]c2ccc4c5c(ccc(c25)=[O+]1)=[O+][Ru-]([O]4)[n+]1ccc(cc1)-n1cc-3nn1", "cell line": "HepG2", "read-out": "cell growth or viability", "technique": "MTT", "time": "24 h", "IC50": "4.4 µM"}
{"Compound": "COc1ccc(C([O-])=CC(=O)c2ccc(C(C)(C)C)cc2)cc1.Cc1ccc(C(C)C)cc1.[Cl-].[Ru+2]", "cell line": "MIA PaCa-2", "read-out": "cytotoxicity", "setting": "dark", "IC50": "~6.9 µM"}
{"Compound": "CC(=O)N[C@H](C(=O)N[C@@H](CCCNC(=N)N)C(=O)N[C@@H](CCCCN)C(=O)N[C@@H](CCCNC(=N)N)C(=O)N[C@H](C(=O)N[C@@H](CC(C)C)C(=O)N[C@@H](CCCNC(=N)N)C(=O)N[C@]1(C)CCCC=CCCC[C@@](C)(C(=O)N[C@@H](CCC(=O)O)C(=O)N[C@@H](CCCNC(=N)N)C(=O)N[C@@H](CCC(=O)O)C(=O)N[C@@H](CC(C)C)C(=O)N[C@H](C(=O)N[C@@H](CCC(=O)O)C(N)=O)C(C)C)NC(=O)[C@H](CC(C)C)NC(=O)[C@H](CC(C)C)NC1=O)[C@@H](C)O)C(C)C", "cell line": "H2030 (wild-type EGFR)", "read-out": "cell viability", "technique": "ATP luminescence", "time": "18 h", "IC50": "> 100 µM"}
{"Compound": "COc1ccccc1-c1ccncc1C(=O)Nc1nnc(OCc2ccc(Cl)cc2)s1", "cell line": "Brca1 cc/cc MEFs", "read-out": "colony survival", "IC50": "~3 µM"}
{"Compound": "CC(=O)N[C@H](C(=O)N[C@@H](CCCNC(=N)N)C(=O)N[C@@H](CCCCN)C(=O)N[C@@H](CCCNC(=N)N)C(=O)N[C@H](C(=O)N[C@@H](CC(C)C)C(=O)N[C@@H](CCCNC(=N)N)C(=O)N[C@]1(C)CCCC=CCCC[C@@](C)(C(=O)N[C@@H](CCC(=O)O)C(=O)N[C@@H](CCCNC(=N)N)C(=O)N[C@@H](CCC(=O)O)C(=O)N[C@@H](CC(C)C)C(=O)N[C@H](C(=O)N[C@@H](CCC(=O)O)C(N)=O)C(C)C)NC(=O)[C@H](CC(C)C)NC(=O)[C@H](CC(C)C)NC1=O)[C@@H](C)O)C(C)C", "cell line": "H2030, wild-type EGFR", "IC50": "> 100 µM"}
{"Compound": "Cc1ccccc1/C=C/C(=O)N[C@@H]1C(=O)N[C@@H](Cc2ccccc2)C(=O)N[C@H](CC(C)C)C(=O)N[C@@H](C(C)C)C(=O)N[C@@H](C)C(=O)N[C@H](CCC(N)=O)C(=O)NCC(=O)N2CCC[C@H]2C(=O)N[C@@H](CCCNC(=N)N)C(=O)N[C@H](Cc2ccccc2)C(=O)O[C@H]1C", "cell line": "HCT-116", "IC50": "> 20 µM"}
{"Compound": "COc1ccc(CN2CCN(Cc3ccccc3)CC2)c(O)c1", "cell line": "CHO", "read-out": "cytotoxicity", "technique": "MTT", "IC50": "> 50 µM"}
{"note": "For quick reference, copied from above:"}
{"Compound": "Cc1ccccc1/C=C/C(=O)N[C@@H]1C(=O)N[C@@H](Cc2ccccc2)C(=O)N[C@H](CC(C)C)C(=O)N[C@@H](C(C)C)C(=O)N[C@@H](C)C(=O)N[C@H](CCC(N)=O)C(=O)NCC(=O)N2CCC[C@H]2C(=O)N[C@@H](CCCNC(=N)N)C(=O)N[C@H](Cc2ccccc2)C(=O)O[C@H]1C", "cell line": "HCT-116", "IC50": "> 20 µM"}
